Results collected from several papers.
Compare with care: the assays were run in different laboratories. ± marks the error that the study gave.

COc1cccc(OC)c1-c1cc(C(=O)NC2(C(=O)O)C3CC4CC(C3)CC2C4)nn1-c1ccc(C(=O)N(C)CCCN(C)CCCN(C)C(=O)[C@H](CCCCNC(=O)[C@H](CC(C)C)NC(=O)C2OC2C(=O)O)NC(=O)CN2CCN(CC(=O)[O-])CCN(CC(=O)[O-])CCN(CC(=O)[O-])CC2)cc1C(C)C.[177Lu+3] (mixture of isomers)
tumour-to-kidney ratio (mouse, HT-29 xenograft; 168 h post injection, biodistribution; baseline: tumour over kidney uptake): 1.25

CN1C(=O)[C@@H](Cc2ccc(O)c(I)c2)NC(=O)CNC(=O)[C@H](Cc2ccc3ccccc3c2)NC(=O)[C@H](CCCNC(=N)N)NC(=O)[C@H]1CCCNC(=O)c1ccc(CNC(=O)CN2CCN(CC(=O)O)CCN(CC(=O)O)CCN(CC(=O)O)CC2)cc1 [lutetium-177 labelled]
total absorbed dose (1; human, extrapolated from mouse, gallbladder wall): 0.019 mGy/MBq

O=C(Nc1cnccc1-c1ccc([18F])cc1)c1ccnc(NC(=O)C2CC2)c1
mean SUV (ex vivo biodistribution, gamma counting; GSK-3β overexpressing transgenic mouse, late stage, left kidney; intravenous, 120 min post-injection): 0.79

Cc1nc(N)nc2c1C(=O)N[C@@H](c1ccc(F)cc1-c1cccc(O[11CH3])n1)C2
tracer uptake (ex vivo biodistribution; healthy mice, stomach; 60 min post-injection, baseline, vehicle pre-treatment): 1.5 ± 0.2 %ID

CN1CCC[C@]1(C)/C=C/S(=O)(=O)NC(=O)Nc1c2c(cc3c1CCC3)CCC2
subjects with adverse event (item: Constipation, possibly related; human; oral, 50 mg twice daily, 14 days, multiple ascending dose): 33.3%

Cc1nn(-c2nc3c(F)cc(F)cc3s2)c(O)c1C(c1ccc(C(F)(F)F)cc1)c1c(C)nn(-c2nc3c(F)cc(F)cc3s2)c1O
Tlast (ICR mouse, plasma; oral, 50 mg/kg): 24 h

O=C(Nc1ccc(C2CCCCC2)cc1)C1CC1
hepatic clearance (liver microsome stability; human liver microsomes; 1 µM, without NADPH): 11 mL/min/kg

CCC1=[N+]2N=C(/C=C/C=C/c3ccc(C(F)(F)F)cc3)C(=O)O[B-]2(c2ccccc2)Oc2cc(N(CC)CC)ccc21 (stereo not drawn)
fluorescence lifetime (toluene): 1.09 ns

N#Cc1cccc(N2CN(CC(=O)NCC(F)(F)F)C(=O)C23CCN(C(=O)c2cnc4[nH]ncc4c2)CC3)c1
CLint (human liver microsomes): 10 µL/min/mg protein

OCCn1nc(-c2ccccc2)c2c(Cl)c(-c3ccccc3)nnc21
AUC (mouse juvenile P20, plasma; intraperitoneal, 130 mg/kg): 7.41 µM·h

Nc1ncc(-c2ccc([C@H]3[C@@H](F)[C@@H](F)C[C@@H](F)[C@H]3F)cc2)cn1
hepatic clearance (liver microsome stability; dog liver microsomes; 1 µM): 8.9 mL/min/kg

[123I]c1ccc2nc(-c3ccc(-n4ccnn4)nc3)cn2c1
tracer uptake (male Wistar rat, liver; intravenous, 4 MBq, 30 min): 1.22 %ID/g

O=C(CCC(F)(F)F)Nc1ccc([C@H]2[C@@H](F)[C@@H](F)C[C@@H](F)[C@H]2F)cc1
hepatic clearance (liver microsome stability; human liver microsomes; 1 µM, without NADPH): 14 mL/min/kg

CC[C@H](C)[C@@H]1NC(=O)[C@H](Cc2ccc(O)cc2)NC(=O)CCCSC[C@@H](C(=O)N(CC(=O)N[C@@H](CC(C)C)C(=O)NCC(N)=O)Cc2ccc(F)cc2)NC(=O)[C@H](CC(N)=O)NC(=O)[C@H](CCC(N)=O)NC1=O
AE leading to discontinuation (human; intranasal, 400 µg single dose): 0%

CC(C)CC(=O)Nc1ccc(C2CCCCC2)cc1
hepatic clearance (liver microsome stability; rat liver microsomes; 1 µM): 50 mL/min/kg

C=C(NC(=O)c1csc(-c2nc3c(cc2O)-c2nc(cs2)C(=O)NC(C(C)O)C(=O)NC(=C(C)OC)c2nc(cs2)C(=O)NC2c4nc(cs4)C(=O)NC(COC(=O)c4c5c6c(cccc6n4O)COC(=O)C(OC4CC(C)(O)C(N(C)C)C(C)O4)C2OC5)c2nc-3cs2)n1)C(N)=O (stereo not drawn)
urinary excretion unchanged (Sprague-Dawley rats, both sexes, urine; intravenous, 6 mg/kg, 48 h; baseline: dose): 0.1%

O=C(COCC(F)F)Nc1ccc([C@H]2[C@@H](F)[C@@H](F)C[C@@H](F)[C@H]2F)cc1
hepatic clearance (liver microsome stability; human liver microsomes; 1 µM, without NADPH): 18 mL/min/kg

CCC(CC)n1c(Cc2ccco2)nc2cc(C(=O)N[C@@H](CC(=O)O)c3ccccc3)ccc21
volume of distribution (Vz) (Sprague-Dawley rat, male, plasma; ip, 10 mg/kg): 12.9 ± 1.33 L/kg

Excerpt of the above:
O=C(Nc1ccc(C2CCCCC2)cc1)C1CC1
hepatic clearance (liver microsome stability; human liver microsomes; 1 µM, without NADPH): 11 mL/min/kg

COc1cccc(OC)c1-c1cc(C(=O)NC2(C(=O)O)C3CC4CC(C3)CC2C4)nn1-c1ccc(C(=O)N(C)CCCN(C)CCCN(C)C(=O)[C@H](CCCCNC(=O)[C@H](CC(C)C)NC(=O)C2OC2C(=O)O)NC(=O)CN2CCN(CC(=O)[O-])CCN(CC(=O)[O-])CCN(CC(=O)[O-])CC2)cc1C(C)C.[177Lu+3] (mixture of isomers)
tumour-to-kidney ratio (mouse, HT-29 xenograft; 168 h post injection, biodistribution; baseline: tumour over kidney uptake): 1.25

C=C(NC(=O)c1csc(-c2nc3c(cc2O)-c2nc(cs2)C(=O)NC(C(C)O)C(=O)NC(=C(C)OC)c2nc(cs2)C(=O)NC2c4nc(cs4)C(=O)NC(COC(=O)c4c5c6c(cccc6n4O)COC(=O)C(OC4CC(C)(O)C(N(C)C)C(C)O4)C2OC5)c2nc-3cs2)n1)C(N)=O (stereo not drawn)
urinary excretion unchanged (Sprague-Dawley rats, both sexes, urine; intravenous, 6 mg/kg, 48 h; baseline: dose): 0.1%
